Assay results collected from several papers.
Each numbered part is a random draw from the data of one study; scales do not carry over between parts. Changes are numbered by the printed parent chain.

Series 1
Target: RING finger protein unkempt homolog, zinc fingers 1-6, GST-SBP tag (UNK, Homo sapiens, UniProt Q9C0B0, residues 30-357)
Method: RNA Bind-n-Seq
Molecule type: RNA
Matrix: in vitro
Concentration: not given
Setting: RNA with constant flanks, ends assumed
Reference: input RNA pool
Reading: higher = stronger binding
Measurement: bound/input enrichment
Shared flanks, not repeated: GGGAGUUCUACAGUCCGACGAUC … CAACAGAGGAUUGAGCAUCA
Construct (chain): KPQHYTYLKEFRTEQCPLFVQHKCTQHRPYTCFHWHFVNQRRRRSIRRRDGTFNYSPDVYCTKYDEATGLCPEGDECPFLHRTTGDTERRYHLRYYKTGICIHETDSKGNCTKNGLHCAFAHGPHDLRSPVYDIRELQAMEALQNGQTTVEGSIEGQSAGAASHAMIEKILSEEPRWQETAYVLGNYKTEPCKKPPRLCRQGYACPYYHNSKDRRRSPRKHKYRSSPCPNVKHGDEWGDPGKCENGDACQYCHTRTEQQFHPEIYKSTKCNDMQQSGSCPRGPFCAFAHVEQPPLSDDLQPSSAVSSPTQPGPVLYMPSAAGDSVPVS
AGUAGAGAACAAUGACCUCAUUUUAUUUUCUAUGUUAGUUAUUUAUUUCAAAAUUAACAUUUCCGUUGAUUUUUGUCUGAUAAGUCUAUGUUUUGCACUGCUAACUAUGAUGAGGGUUUA: 1.08 ratio
CUGAUCAUUGGAAAAGGAGGUGAAACCAUAAAAAGCAUAAGCCAACAGUCUGGUGCAAGAACCGAACUGCAGAGAAGCCCUCCACCUAAUGCAGAUCCCAAUAUGAAGUUAUUUACAAUU: 0.132 ratio
ACAGGGAAUGGGCGGCGGCUCCACCUGGGGAUUCCUGAGGCCGUGUUUGUGGAAGAUGCCGAUUCCUUCAUGAAACAGCCUGGGAAUGAGACUGCAGAUACAGUAUUAAAGAAGCUGGAU: 0.128 ratio
AUUGCAACAAAUGGAGAAAGUGCUGUGGUACAAUUACCAAAAAAUGGCCCAAUUUAUGAUGCCGUUUGGAAUUCCAGUUCUACUGAGUUUUGCGCUGUUUAUGGUUUUAUGCCUGCGAAA: 0.0772 ratio
GGUGUUGCGAGUAUAGGAGGCAAAAUUGCACCCUGUUGAAAACCACCACCUUAGAUCAUCCCGGUUUUACUUUUAGGAUAAGACACUUGAGGGAAAGGCUGUGAAACUGAACCUCUGUUA: 0.272 ratio
AAGGCAACAGAUGAAACGGGUGUAUCUGCUGUUCAGUUUGGAAACUCUUCUACAUCAGUAUCCGCUACAUUAGCUGCCUUAGCUGAAGCAUCUGCUCCAUUGUCCAAUUCUUCAGAAACU: 0.0321 ratio
CUCAGAGACGUGGCAUAUCAAUAUGUGAAAAAGGGGUCUCGAAUUUAUUUGGAAGGGAAAACCGACUAUGGUGAAUACAUGGAUAAAAAUAAUGUGAGGCGACAAGCAACAACAAUCAUA: 0.253 ratio

Series 2
Target: CCNA1, cyclin fold, Cln2 fusion (human)
Method: yeast growth competition, sequencing
Matrix: yeast
Setting: weak parent motif
Reference: not given
Reading: higher = stronger binding
Measurement: normalised enrichment score
Parent: SCAPER docking peptide (human); SNARRSLNFGGST
SNARRSLNFVGST [G10V]: 0.2
SNASRSLNFGGST [R4S]: 0.0218
SNARRSINFGGST [L7I]: 0.3
SNAVRSLNFGGST [R4V]: 0.206
SNARRSLNVGGST [F9V]: 0.147
SNNRRSLNFGGST [A3N]: 0.709
SNHRRSLNFGGST [A3H]: 0.326
SNARRMLNFGGST [S6M]: 0.596
SNARRSLNFGGHT [S12H]: 0.821
SNARRSLNTGGST [F9T]: 0.321
SNFRRSLNFGGST [A3F]: 0.312
SNARRPLNFGGST [S6P]: 0.559
SNARRSLNFTGST [G10T]: 0.585

Series 3
Target: Histone acetyltransferase KAT6A, winged helix 1, GST fusion (KAT6A, Homo sapiens, UniProt Q92794, residues 1-85)
Method: protein binding microarray
Molecule type: double-stranded DNA, one strand shown
Matrix: in vitro
Concentration: not given
Setting: 8-mer, flanks averaged, mean of 2 arrays, mostly near background
Reference: not given
Reading: higher = stronger binding
Measurement: E-score
Construct (chain): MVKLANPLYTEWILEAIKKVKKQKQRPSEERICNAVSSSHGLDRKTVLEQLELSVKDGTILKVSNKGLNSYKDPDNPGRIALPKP
ATGCCACG: 0.00394
ACAGCCAT: -0.0285
GATCGTAC: -0.131
GCAAAGGA: 0.0653
CGGAACCG: 0.321
GCTATCTA: -0.0904
AATGAATC: -0.185
AAAATAGA: -0.187
AGTTTTCC: 0.169
ACCCACGT: -0.283
AGTACGAG: -0.0151
TCAAACGA: -0.0896
CTTTAAGA: -0.106
ATTCATCC: -0.122
ACACCTCT: -0.0636

Further values, each from its own experiment
PhoQ, residues 284 288 289 292 302 303 SASVAL
fold induction (PhoP, residues 12 14 15 18 19 TPLRH (Escherichia coli, UniProt P23836); Sort-seq, measured: YFP reporter; E. coli; PhoQ-PhoP variant library, added: 10 µM Mg2+; reference: high Mg2+ state, higher = stronger signaling): 0.921
